Experimental data collected from several papers.
Numbered parts are unrelated; each lists some results of a single study.

Sample 1
Target: Interferon regulatory factor 5, full length, phosphomimetic (IRF5, Homo sapiens, UniProt Q13568-2, residues 1-514, S451D/S453D/S456D/S462D)
Technique: protein-binding microarray
Form: double-stranded DNA, one strand shown
Medium: in vitro
Concentration: 940 nM top
Notes: 60-bp whole probe
With: salmon DNA 0.4 mg/ml
Baseline: random background probes
Direction: higher = stronger binding
Quantity: fitted relative affinity
All sequences stand within: GCCTAGCAC … GTCTTGATTCGCTTGACGCTGCTG
GGAGGGGGGCGGGGCGGTGGGTGCTAG: 4.26 z-score
TTAGACTTCGGGACTGGATTAGTGCTA: -0.271 z-score
TTAGGTCTCCTTATCCTTTCGTGCTAG: 0.497 z-score
TTTCCTTCCTCTTTTACCCCGTGCTAG: 2.59 z-score
GACGGTCTCCTATTCCTGACGTGCTAG: 0.241 z-score
TTAGGTATCGGACTTGGTTAGTGCTAG: 2.8 z-score
TAATATCTAAGATTCTAGCCGTGCTAG: -0.521 z-score
TTCGATTTCAGTCTCGATTAGTGCTAG: 4.48 z-score
GACGGACTGGGTTTCGAGACGTGCTAG: 2.12 z-score
TCAGCCAGCTCTTTCGTACTGTGCTAG: -0.00676 z-score
TTAGGACTGCTTCTCCTTAAGTGCTAG: -0.0159 z-score
TACGGACTGGGTCTCGGGACGTGCTAG: -0.277 z-score
TTAGGTTTGGACTTTCGGTTAGTGCTA: 2.59 z-score
TTAGATTTCGGGTATAGATTAGTGCTA: 1.45 z-score
TTAGATCTCAGTCTCGATTTGTGCTAG: 3.03 z-score
TTAGGTATCGGACGGGGTTAGTGCTAG: 4.14 z-score
GATGGTATCCTTATCCTGACGTGCTAG: 0.586 z-score
GACGGTCTCCTACTGTTGACGTGCTAG: 0.233 z-score
GAAGGTTTCGGTCTCGGGACGTGCTAG: 11.9 z-score
GACTGTTTCGACTATCGGGACGTGCTA: 3.72 z-score
GACGAACAGAGACTGGAGACGTGCTAG: -0.492 z-score
GACGGTAGCGGTTTCGGGACGTGCTAG: 3.28 z-score

Sample 2
Target: RNA binding protein fox-1 homolog 2, RRM domain, GST-SBP tag (RBFOX2, Homo sapiens, UniProt O43251-10, residues 100-194)
Technique: RNA Bind-n-Seq
Form: RNA
Medium: in vitro
Concentration: 365 nM
Notes: natural RNA segment, single round, ends assumed
Baseline: no-protein control
Direction: higher = stronger binding
Quantity: RBNS enrichment (R)
All sequences stand within: GGGAGUUCUACAGUCCGACGAUC … UGGAAUUCUCGGGUGCCAA
Construct (chain): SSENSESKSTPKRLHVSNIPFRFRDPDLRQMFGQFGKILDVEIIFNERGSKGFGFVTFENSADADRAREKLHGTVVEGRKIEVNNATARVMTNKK
CCACUACACUUCAGACCAAUGGGACAGUCAUAGAUGGUGUGACAGUGUUUAAACGCAACAAAAGGCUACAUUUCCAUGGGGCCAGCACUGUCAUGAGCCUCACUAAGCUA: 0.499
UCAGGCAGGAUUCCUGUGGACUUUGAGAUUCAUGUUACCUCAUCUUCUUUUUUAAACUGUACCCAACUUGUGAGGGUACUCUGUCUAAUGUAUAUUUCUAGUGUUUACAG: 0.504
CAGGCGCUCGCGGAAGCACGUCACUUACUGGGUUUGUUCACCUGUUUCCAGCAAGUUUUGGUCUUUUGGGCAGAAGCCUGUUGACCAACUGUGGGCCACCACAGUCUGCA: 0.862
UAAGUGUUGAUUAUAUGUGCUGGGUCUCUAGAGAAGUUUUUAUUUGUUACAAUACUGCUGCUUUGAGCAAUUUUGUUUCUCUUCAUUGUCUGUUAGGGAAAUCACCAGCU: 0.775
AAUCUGUUACUCAGUGUUAGUCUUCAUUUUUCUGUGUUGGAAACCUGCGUCAUGUAAAUAUCUGCAAAUCAUGACAGUCUAAAGUGCAAACCAUUUUCAGAGACUUUGGG: 0.412
ACUUGCCUCUUGUAUGCAAGGACUACUGAUUGAAGUCUGUUUUGCUGUGUCUGGUUAUGUUGUCUGCACUUUUAUGAAAUCACUACAAUAGGUCUGCAUUGGAAAUGACU: 1.51
UCCAAAUGAGCUGCUAUAAAACACCUUUCAGGGGCUGAGAUGCAGCUCUGGUGUGAGUCACUUACCUAGCUUAUGUCAGGCCCCUAAAAGUAAUGCAUAAACUGUCAGAA: 0.233
UUACAACAUUGCACAGCUGUGUAGAAACCCCGUGUUCUUUCCCAUAGGUGCCAAUUUGGGUGGGGGAGGAAGGAACAAUUACAAGAUCCCCAUCUGUCUGCCCAUGCCAC: 0.461
CCACACCCCAGCUCCUAUCUUCUGUACCCGAGUGUGUCUGAUGCUCCGUGCUGUCCAGGAAUUGUUUUAUGUAUUAUUGUCAUUGCAGAAAAGGUAGUGGCCGAGCUGGU: 0.58
GCAGCACAACCUGGAAAUGGUGGGCGAGAGUACCCGGCAGUGAUGCCCGCCGGCUCACCCUUCAGCUGCUGUCGGCCUCUGCUGCCCCUCCCCCAGCCCUUAGCACAGAG: 0.329
CCUUGCUAAAGAUUGAAGUAGGUUCUCUUAAAAGGUCUAUUGAUGGACAUGUCUGAGCAGAGAAACCGUGGAAUAGAAUAUGGUGCGUGGGCUGCUAACAGCAAGAGGGA: 0.967
ACAUGGUGACCCAAGAGUCUGGGCCUGCUCACCGCAAAGAGUUCACCAUGACUUGCCGGGUGGAGCGUUUCAUUGAGAUUGGCAGUGGCACUUCCAAAAAGCUGGCAAAG: 0.286

Sample 3
Organism: Saccharomyces cerevisiae
Read-out: binding
Technique: yeast competitive growth sequencing
Form: peptide
Strain: cyclin D1-Cln2 strain
Medium: peptide tiling library
Notes: pooled screen
Direction: direction not given
Quantity: enrichment score
IVLICAKRSLCAAFSV: -2.06
KPKPVKPVTFSTGIKM: 2.54
PKRAKRKLYTSEISSP: -0.966
VLVRTSACRSLFGPVD: -0.201
SSEVARHLLFQSHM: -0.312
PARRRLRLSVDEVSSP: -0.653
PAKRRLELGE: 0.393
SMTDFYHSKRRLIFSK: -0.85

Sample 4
Target: Histone acetyltransferase KAT6A, winged helix 2, GST fusion (KAT6A, Homo sapiens, UniProt Q92794, residues 85-181)
Technique: protein binding microarray
Form: double-stranded DNA, one strand shown
Medium: in vitro
Concentration: not given
Notes: 8-mer, flanks averaged, mean of 2 arrays, mostly near background
Baseline: not given
Direction: higher = stronger binding
Quantity: E-score
Construct (chain): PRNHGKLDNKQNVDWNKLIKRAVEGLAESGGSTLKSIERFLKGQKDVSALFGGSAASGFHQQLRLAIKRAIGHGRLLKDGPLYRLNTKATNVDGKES
GAAACGTA: -0.227
CATGCCTA: -0.167
GCCTCTCC: 0.0785
AATGTGTG: -0.138
ATAGCAAC: 0.0832
AATGCAAA: 0.127
CCAGAGCA: 0.223
GTGAGCCA: -0.13
TACGGCAA: 0.0114
GTGATACA: -0.0319
GTATAGGA: -0.215
AACCGTAC: -0.244
AATACTAG: 0.12
GGACCTTA: -0.0543
CGTGTCGA: -0.0486
ACTCTCGG: 0.146
AGGAAGTC: -0.278
AGCACCAA: -0.0244
